Experimental data from different studies.
Numbers after ± are the reported error.
HLA class I histocompatibility antigen, A alpha chain allele A*02:01: HLA class I histocompatibility antigen, A alpha chain, allele A*02:01 (Homo sapiens, UniProt P04439)
ACTA1: ACTA1 (Oryctolagus cuniculus, UniProt P68135)
ACTA1 F-actin: ACTA1 F-actin (Oryctolagus cuniculus, UniProt P68135)
B1: Palld 1022-1126 (Mus musculus, UniProt Q9ET54); chain NATAPFFEMKLKHYKIFEGMPVTFTCRVAGNPKPKIYWFKDGKQISPKSDHYTIQRDLDGTCSLHTTASTLDDDGNYTIMAANPQGRVSCTGRLMVQAVNQRGRS
B2: TWF1 (Saccharomyces cerevisiae, UniProt P53250); SNAP-Surface-549 label; chain MSTQSGIVAEQALLHSLNENLSADGIVIIIAKISPDSTSVHQTQVARSFEELVQLASQEREPLYIFYKPEGLDKYFFVSFIPDGSPVRSRMLYASTKNTLARQVGSNSLSTEQPLITDAQDLVDLKNFDSARPAGQNKPLTHDEEMQIEINKQQALLRKNTSVKLVSQDSASPLSLTFRVNSEKPINEILDSEGKNLIIFQIDPSNETIQIVQSDTCPSVDELYIDLPGPSYTIFRQGDSSFFIYSCPSGSKVKDRMIYASNKNGFINYLKNDQKIAFSKVVEIGDFVELDKSLLMATNKEDSLDHGSNPDLPNKSNLKFNKPKGPLRKRRT

| Substance | target or system | test | system | conditions | scale | quantity | value |
| --- | --- | --- | --- | --- | --- | --- | --- |
| AATGAATGAATG (dsDNA) | Fibroin-modulator-binding protein-1 99-193 (Bombyx mori, UniProt Q5FBS0) | ITC | double-stranded DNA, one strand shown | – | – | Kd | 1.31 ± 0.102 µM |
| LIMQLMPFG | HLA class I histocompatibility antigen, A alpha chain allele A*02:01 | conformational ELISA | peptide | concentration not given | reference: positive control peptide, direction not given | binding score | 13.3% |
| Myo31DF (Drosophila melanogaster, UniProt Q23978) | ACTA1 | bead movement on actin filament, motility assay | – | – | – | speed | 8 nm/s |
| B1 (Palld 1022-1126) | ACTA1 F-actin | low-speed co-sedimentation | – | 5 µM | – | bundled F-actin fraction | 11.5% |
| GGGAGAACUUCGACCAGAAGUGGAACUACGCGACAAACUUCCCGCCUGUUCCACCUUAUGUAUGUGCGCAUACAUGGAUCCUC (ssRNA; 2'-fluoro pyrimidines) | integrin alphaV/beta3 31-992/27-718 (Homo sapiens) | SPR | RNA | added: MnCl2 1 mM | higher = more binding | relative binding | 100 RU |
| YAP1 (Homo sapiens) | ACTA1 G-actin (Oryctolagus cuniculus, UniProt P68135) | SPR | – | – | – | dissociation half-life | 3.07 ± 0.27 min |
| SPTBN2 actin-binding domain L253P (sequence not shown) | ACTA1 F-actin | co-sedimentation | – | – | – | Kd | < 1 µM |
| PALLD Ig3-Ig4 tandem I179V/N224S | ACTA1 F-actin | low-speed co-sedimentation | – | 5 µM | – | bundled F-actin fraction | 49.7% |
| SPTBN2 actin-binding domain K65E (sequence not shown) | ACTA1 F-actin | co-sedimentation | – | – | – | Kd | < 1 µM |
| LMPFGSLLDYV | HLA class I histocompatibility antigen, A alpha chain allele A*02:01 | conformational ELISA | peptide | concentration not given | reference: positive control peptide, direction not given | binding score | 63.2% |
| B2 (TWF1) | ACTA1 F-actin filaments, Alexa-488 label (Oryctolagus cuniculus, UniProt P68135) | single-molecule TIRF | – | – | – | koff | 2.26 ± 0.3 s⁻¹ |
| PALLD Ig3-Ig4 tandem del6 linker residues | ACTA1 F-actin | co-sedimentation | – | – | – | Kd | 9.1 ± 1.5 µM |
| DNA 1 CACTGGCCGTCTTACGGTCGCTCTGCTCGACG / DNA 2 CGACCGTAAGACGGCCAGTG (dsDNA; 20 bp, 3' 12 nt overhang) | RECQL 63-592 (Bos taurus, UniProt A0JN36) | fluorescence anisotropy | double-stranded DNA | added: Mg2+ 3 mM | – | Kd | 0.0106 ± 0.0017 µM |
| PALLD Ig3-Ig4 tandem x, scrambled linker | ACTA1 F-actin | co-sedimentation | – | – | – | Kd | 4 ± 1.3 µM |
| DNM1L fragment (Homo sapiens) (sequence not shown) | ACTA1 filaments (Oryctolagus cuniculus, UniProt P68135) | co-sedimentation | – | apparent, added: NaCl 140 mM | – | Kd | 1.2 µM |
| SPTBN2 actin-binding domain D255G (sequence not shown) | ACTA1 F-actin | co-sedimentation | – | – | – | Kd | 7.3 µM |
| PLS3 (Homo sapiens, UniProt P13797) | ACTA1 | fluorescence microscopy | – | video-enhanced | – | binding | binds |
| SPTBN2 actin-binding domain T271I (sequence not shown) | ACTA1 F-actin | co-sedimentation | – | – | – | Kd | < 1 µM |
| PALLD Ig3-Ig4 tandem del21 linker residues | ACTA1 F-actin | low-speed co-sedimentation | – | 5 µM | – | bundled F-actin fraction | 82.1% |
| SPTBN2 actin-binding domain V58M (sequence not shown) | ACTA1 F-actin | co-sedimentation | – | – | – | Kd | 10.2 µM |
| TMSB4X mature (Homo sapiens, UniProt P62328) | ACTA1 G-actin monomer, NT-647 dye label (Oryctolagus cuniculus, UniProt P68135) | MST | – | – | – | Kd | 3.2 ± 0.6 µM |

Excerpt of the above:
| Substance | target or system | test | system | conditions | scale | quantity | value |
| --- | --- | --- | --- | --- | --- | --- | --- |
| SPTBN2 actin-binding domain L253P (sequence not shown) | ACTA1 F-actin | co-sedimentation | – | – | – | Kd | < 1 µM |
| PALLD Ig3-Ig4 tandem I179V/N224S | ACTA1 F-actin | low-speed co-sedimentation | – | 5 µM | – | bundled F-actin fraction | 49.7% |
| SPTBN2 actin-binding domain K65E (sequence not shown) | ACTA1 F-actin | co-sedimentation | – | – | – | Kd | < 1 µM |
